Results from different studies.
Each numbered part is a random draw from the data of one study; scales do not carry over between parts. Several values in a cell are separate wells, animals, samples, runs or records.
UniProt P31645, sequence (whole entry, looked up): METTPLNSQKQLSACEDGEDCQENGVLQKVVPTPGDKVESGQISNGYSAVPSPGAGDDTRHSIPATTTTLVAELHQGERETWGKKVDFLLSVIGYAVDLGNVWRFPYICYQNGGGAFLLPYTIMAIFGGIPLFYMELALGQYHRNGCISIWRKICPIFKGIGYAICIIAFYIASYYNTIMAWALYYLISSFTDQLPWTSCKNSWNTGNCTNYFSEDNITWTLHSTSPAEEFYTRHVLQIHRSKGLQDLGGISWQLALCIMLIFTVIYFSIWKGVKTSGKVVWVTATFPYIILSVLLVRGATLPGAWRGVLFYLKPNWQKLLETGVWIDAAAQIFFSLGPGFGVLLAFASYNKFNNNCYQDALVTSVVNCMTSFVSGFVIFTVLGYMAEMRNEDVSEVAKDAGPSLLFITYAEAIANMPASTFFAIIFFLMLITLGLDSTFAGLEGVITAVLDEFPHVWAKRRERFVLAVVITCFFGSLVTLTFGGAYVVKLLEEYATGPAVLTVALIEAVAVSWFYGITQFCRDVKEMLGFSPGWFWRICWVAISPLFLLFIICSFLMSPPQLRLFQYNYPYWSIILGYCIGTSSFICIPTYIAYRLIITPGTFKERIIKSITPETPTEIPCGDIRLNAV

Block 1 — cell line: HEK-293T-ACE2-TMPRSS2; technique: cell count; tested at: concentration not given; quantity: viability
COc1cccc(Oc2ccc(NC(=O)c3cc4cc(Br)ccc4o3)cn2)c1: 76%
CCc1nc(-c2ccc(N3CCN(C(=O)Cc4ccc(OC)c(OC)c4)CC3)cc2)no1: 76%
CCc1nc(=O)c(-c2ccccc2)c(C)n1-c1ccccc1: 73%
COc1ccc(NC(=O)c2nc(S(=O)(=O)Cc3ccccc3C)ncc2Cl)cc1: 72%

Block 2 — technique: CCK-8; quantity: survival
Compound: CC(C)S(=O)(=O)c1ccc2nccc(Nc3ccc4sc(C5CCCC5)nc4c3)c2c1.Cl
L929 RIPK3-/- reexpressing RIPK3 K51A; 1.563 µM, with: zVAD: 99.8% and 94.4% and 103% and 96.2% and 101%
L929 RIPK3-/- reexpressing RIPK3 K51A; 12.5 µM, with: zVAD: 108% and 96.6% and 101% and 93.5%
L929 RIPK3-/- reexpressing RIPK3 K51A/R69H; 1.563 µM: 99.6% and 92.6% and 88.2% and 82.5%

Mixed results
O=P1(N(CCCl)CCCl)NCCCO1 (stereo not drawn) — viability (HaCaT; 100 µM, 60 h): 135%
O=C(NS(=O)(=O)c1ccc(NCC2CCOCC2)c([N+](=O)[O-])c1)c1ccc(N2CCN(Cc3ccc(C(F)(F)F)cc3-c3ccc(Cl)cc3)CC2)cc1Oc1cnc2[nH]ccc2c1 — inhibition (SLC6A4 (Homo sapiens, UniProt P31645); ligand displacement; 10 µM): -8.19%

For quick reference, copied from above (block 1):
CCc1nc(=O)c(-c2ccccc2)c(C)n1-c1ccccc1: 73%
